Measurements collected from several papers.
Numbered parts are unrelated; each lists some results of a single study.

Set 1
Target: Interferon regulatory factor 5, full length, phosphomimetic (IRF5, Homo sapiens, UniProt Q13568-2, residues 1-514, K96S/S451D/S453D/S456D/S462D)
Technique: protein-binding microarray
Form: double-stranded DNA, one strand shown
Sample: in vitro
Tested at: 250 nM
Setting: 60-bp whole probe
Added: salmon DNA 0.4 mg/ml
Reference: random background probes
Reading: higher = stronger binding
Constant ends, left off below: GCCTAGCAC … GTCTTGATTCGCTTGACGCTGCTG
Sequence	log fluorescence [z-score]
TTATATTTCGGGTTTCGATTAGTGCTA	8.3
TCACCTGTGCTATTTATAACTGTGCTA	0.286
TCATGTTTCTCAACCAGACTGTGCTAG	0.595
GAGGGACTGCTTTTCCTGACGTGCTAG	-0.00709
TCAGCTGTCCTTTGCAAACTGTGCTAG	-0.106
TTTTTTTTTTTTTCTGATCCGTGCTAG	1.7
TCATGTTTACATATGTTACTGTGCTAG	0.357
TCAGAACTGAGACTGGATTAGTGCTAG	-0.0528
TTAGATCACAGTATCGATTAGTGCTAG	6.22
TTAGGTATCGTTCTCGGTTAGTGCTAG	3.36
TTAGGGCTGGGGTTTCGGTTAGTGCTA	5.86
CTCTTTCTTTGCTTCACCCTGTGCTAG	1.27
GACGAACTGAGTTTCTAGACGTGCTAG	0.658
GACGAACTGGCGACTGGAGACGTGCTA	-0.525
GACGGTATCGGGCTGGGGACGTGCTAG	1.08
ATAGATATCAGTCTCGATTAGTGCTAG	2.22
GACGGTTTTGACTTTCGGGACGTGCTA	5.75
TTAGGTCTCCTCATCCTTTAGTGCTAG	-0.297

Set 2
Target: RNA binding protein fox-1 homolog 2, RRM domain, GST-SBP tag (RBFOX2, Homo sapiens, UniProt O43251-10, residues 100-194)
Technique: RNA Bind-n-Seq
Form: RNA
Sample: in vitro
Tested at: 365 nM
Setting: natural RNA segment, single round, ends assumed
Reference: no-protein control
Reading: higher = stronger binding
Residues (chain): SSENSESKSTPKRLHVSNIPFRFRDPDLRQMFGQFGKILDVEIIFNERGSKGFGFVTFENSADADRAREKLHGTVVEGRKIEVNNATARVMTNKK
Sequence	RBNS enrichment (R)
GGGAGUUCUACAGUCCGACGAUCAUCCUCCCAUGAAAAUCAGUUCGCCUGGCCUCCAAGUCGUGAGGAAAUGGGUAUGCAAGGCUGAGAUUUCUACAGCAAUAAAGGAGACACACACUGGGCCAGAGAGGCCUUGGAAUUCUCGGGUGCCAA	0.544
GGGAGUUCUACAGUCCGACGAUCGCAGACUAGUUUUGGAUACAUUCACAUUUUGUACGUUUUCAUAUAAGCUGACAUAGUGUGAUUUGCCAUGUAAUGUUUAUAGCUGCUGCUGUCUGCACAUUUGGGGGUCUUGGAAUUCUCGGGUGCCAA	0.295
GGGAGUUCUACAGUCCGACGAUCGGGUGCUGUCUGCCACUUGCUCCCUGCCAACUUUCUGGAGAGGUGCCAAACUUGGUGUGGCCAGGAAAGGGCAGUCCUGAGGGAGAAGACAGGAUUCAGGGCAGUGCUCCUGGAAUUCUCGGGUGCCAA	0.397
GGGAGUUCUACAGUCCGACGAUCGAUCCAUGGAAUAAUAUGUAAUUCUUGUUUUCCUUGUCUUUUAGUCCAGUUUUUCUUUUUCCCUCUCAUAUAUUUGUAACCUGGGUCCUAAACUGACUGAAGAGUUUGUCUGGAAUUCUCGGGUGCCAA	0.28
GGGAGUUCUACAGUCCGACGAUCAGAGCUACAACAUGCCAUCUAUAGUUGCCAGCCCUGGUCAGUUUUGAUUCUUAACCCCAUGGACUCCUUUCCCUUUCUUCUCUGAAAAAAACUAAUUUAAAUUUGCUUUUUGGAAUUCUCGGGUGCCAA	1.27
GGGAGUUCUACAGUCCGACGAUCUUUUUUUUGUACUUAGAAAACCUAGAUACUGCAGUCAGAUUUUGGAAACUGCCGUAUAGUCACUGUUUUAAAAACCCCGGAGGGGCUGUAUUAAUUUGUAUUGCCCCAUGUGGAAUUCUCGGGUGCCAA	0.522
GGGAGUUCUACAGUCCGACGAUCUUACCGGUGAAAGUCACAGGUACCUUUAUCUAUGAUGAAUGUAAUGUGUUAGAUGGUGACCGAAGUGUUCUCCACUACACCUGUCUGAAGAGAUCUAAGUCUGAUAUUUAUGGAAUUCUCGGGUGCCAA	0.324
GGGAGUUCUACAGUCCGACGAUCGAAGUAGCAUCUCCAGGCAAGCUGCCCGAGGAAGGGAACAAGUCGCAAUGUUAGAAGAUGCCAUAAAGUCACAUGGACAACUCAUGGUACUUUUUCUGGGUUGGCAAUUUUGGAAUUCUCGGGUGCCAA	0.486
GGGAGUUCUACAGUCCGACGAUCACACCGAAUGAAUGCAUCUCUGGGAGCUGGCACCACAACCCUGAUGUAUAGGCUGUGUUGGUUUAUGGAGACAAGUUGCAUCAAUGAAUUCACCUAGCAUAGGCUCUUUGUGGAAUUCUCGGGUGCCAA	1.17
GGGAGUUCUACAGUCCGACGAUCUAUGAUCCUAUUAAAAUAAUAUAGGGUAAAUACCCUACCUCUUAGAAAGGGCAAAAAUGCAAAGAAGCUUUCUUUAAAACUAAAAGGGUUUUUUGGGGGGGGAGUUGGCGUGGAAUUCUCGGGUGCCAA	0.57
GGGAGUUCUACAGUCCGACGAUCCAUUCCAAAGUGCAUCAGAACUGUCAUUCCCUUCUAAUAUCUUCUCAGGAGUAAUACAAAUCAGGUAUUUCAUCAUCAUUUGGUAAUAUGAAAACUCCAGUGAACUCCCAUGGAAUUCUCGGGUGCCAA	0.496
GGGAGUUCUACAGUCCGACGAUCAUGUACAGCUGGUGCUUAGUUUUUUUUUAAUCUAAAUUUAAUUACCUUAUUGGAUAUUUGAUAUUUGGUUAUUUAAUCACAGUCAUCUUUAACAGCUUACACUGAUUGGUUGGAAUUCUCGGGUGCCAA	0.525

Set 3
Target: Prothrombin, mature alpha-thrombin (F2, Homo sapiens, UniProt P00734)
Technique: aptamer microarray, sandwich
Form: DNA with 2'F-ANA
Sample: in vitro
Tested at: 200 nM
Setting: whole 15-mer aptamer, many near background
Added: Cy3 exosite-II aptamer, 400 nM
Reading: higher = stronger binding
Sequence: GGTTGGTGTGGTTGG
Modification	mean fluorescence intensity [a.u.]
2'F-ANA at 3 5 8 11 12 13	207
2'F-ANA at 2 3 5 7 8 12 13 14 15	64
2'F-ANA at 1 2 3 5 10 11 14 15	47.8
2'F-ANA at 1 3 4 5 6 7 9 10 11 12 15	54.7
2'F-ANA at 2 5 8 11 14	60.6
2'F-ANA at 3 4 5 9 10 11 12 13 14 15	55.8
2'F-ANA at 8 9 12 13 14 15	188
2'F-ANA at 2 3 4 7 8 10 11 12 13	284
2'F-ANA at 1 2 3 4 6 8 12	398
2'F-ANA at 2 4 6 7 10 11 13 14	61
2'F-ANA at 3 4 8 10 15	303
2'F-ANA at 1 2 8 9 12 13	309
2'F-ANA at 1 2 4 6 7 8 9 10 11 13 14 15	50.5
2'F-ANA at 2 3 5 7 10 13 15	53.6
2'F-ANA at 3 5 6 14 15	50.3
2'F-ANA at 1 3 5 7 8 12 14 15	52.2
2'F-ANA at 1 6 10 11 15	65.3
2'F-ANA at 4 5 6 8 10 14	54.8
2'F-ANA at 1 2 3 5 7 8 9 10 11 13	51.2
2'F-ANA at 2 3 4 6 7 12 13	558
2'F-ANA at 3 7 8 11 12 14	781

Set 4
Target: UBE2G2 UBC core domain (UniProt P60604)
Technique: yeast two-hybrid
Sample: yeast
Setting: mostly zero background
Reference: not given
Reading: higher = stronger interaction
B1: HLTF RING domain (UniProt Q14527); chain LILSSGSDEECAICLDSLTVPVITHCAHVFCKPCICQVIQNEQPHAKCPLCRNDIHEDNLLE
B2: BFAR RING domain (UniProt Q9NZS9); chain GPQISVSEFSCHCCYDILVNPTTLNCGHSFCRHCLALWWASSKKTECPECREKWEGFPKVS
B3: RUFY1 RING domain (UniProt Q96T51); chain QALKGHAWLKDDEATHCRQCEKEFSISRRKHHCRNCGHIFCNTCSSNELALPSYPKPVRVCDSCHTLLLQRCSSTAS
B4: RING1 RING domain (UniProt Q06587); chain SPRSLHSELMCPICLDMLKNTMTTKECLHRFCSDCIVTALRSGNKECPTCRKKLVSKRSLR
B5: TRIM41 RING domain (UniProt Q8WV44); chain PVQTLQEEAVCAICLDYFTDPVSIGCGHNFCRVCVTQLWGGEDEEDRDELDREEEEEDGEEE
B6: ZNRF4 RING domain (UniProt Q8WWF5); chain VRTFTWHNDLCAICLDEYEEGDQLKILPCSHTYHCKCIDPWFSQAPRRSCPVCKQSVAATEDSF
B7: ARIH2 RING domain (UniProt O95376); chain HVPTSHPPHHCAVCMQFVRKENLLSLACQHQFCRSCWEQHCSVLVKDGVGVGVSCMAQDCPLRTPEDFVF
B8: CNOT4 RING domain (UniProt O95628); chain MSRSPDAKEDPVECPLCMEPLEIDDINFFPCTCGYQICRFCWHRIRTDENGLCPACRKPYPED
B9: RNF103 RING domain (UniProt O00237); chain WPADMLHCTECVVCLENFENGCLLMGLPCGHVFHQNCIVMWLAGGRHCCPVCRWPSYKKKQPY
Construct (chain): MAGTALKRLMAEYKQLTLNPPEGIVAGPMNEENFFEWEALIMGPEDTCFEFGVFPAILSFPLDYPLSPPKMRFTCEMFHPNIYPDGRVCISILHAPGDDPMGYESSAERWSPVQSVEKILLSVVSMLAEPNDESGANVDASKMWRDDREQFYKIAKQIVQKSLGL
Molecule	lacZ reporter activity
FAEQPSVKLCCQLCCSVFKDPVITTCGHTFCRRCALKSEKCPVDNVKLTVVVNNI (TRAF7 RING domain (UniProt Q6Q0C0))	0
DDVLTKDAGECVICLEELLQGDTIARLPCLCIYHKSCIDSWFEVNRSCPEHPAD (ZNRF1 RING domain (UniProt Q8ND25))	0
LEALSSDFLACKICLEQLRAPKTLPCLHTYCQDCLAQLADGGRVRCPECRETVPVPPEGV (TRIM56 RING domain (UniProt Q9BRZ2))	0
B1 (HLTF RING domain)	0
B2 (BFAR RING domain)	0
ASEEEFQFLRCQQCQAEAKCPKLLPCLHTLCSGCLEASGMQCPICQAPWPLGADTP (PML RING domain (UniProt P29590))	0
B3 (RUFY1 RING domain)	16100
B4 (RING1 RING domain)	0
B5 (TRIM41 RING domain)	0
LVKDFNPYITCYICKGYLIKPTTVTECLHTFCKTCIVQHFEDSNDCPRCGNQVHETNPLE (PCGF5 RING domain (UniProt Q86SE9))	0
B6 (ZNRF4 RING domain)	4780
B7 (ARIH2 RING domain)	0
B8 (CNOT4 RING domain)	0
ASPKIFQKTKCSICNSALELPSVHFLCGHSFHQHCFESYSESDADCPTCLPENRKVMDMI (VPS11 RING domain (UniProt Q9H270))	0
FDPPLESKYECPICLMALREAVQTPCGHRFCKACIIKSIRDAGHKCPVDNEILLENQLFP (TRAF6 RING domain (UniProt Q9Y4K3))	0
B9 (RNF103 RING domain)	4410

Some of these lines once more (set 3):
Modification	mean fluorescence intensity [a.u.]
2'F-ANA at 2 3 5 7 8 12 13 14 15	64
2'F-ANA at 1 2 3 5 10 11 14 15	47.8
2'F-ANA at 1 3 4 5 6 7 9 10 11 12 15	54.7
2'F-ANA at 2 5 8 11 14	60.6
2'F-ANA at 3 4 5 9 10 11 12 13 14 15	55.8
2'F-ANA at 8 9 12 13 14 15	188
2'F-ANA at 2 3 4 7 8 10 11 12 13	284
2'F-ANA at 1 2 3 4 6 8 12	398
